Assay results pooled from the literature.
Parts stem from different laboratories: compare values within a part only.
Sequence of UniProt P49137 (whole entry, looked up): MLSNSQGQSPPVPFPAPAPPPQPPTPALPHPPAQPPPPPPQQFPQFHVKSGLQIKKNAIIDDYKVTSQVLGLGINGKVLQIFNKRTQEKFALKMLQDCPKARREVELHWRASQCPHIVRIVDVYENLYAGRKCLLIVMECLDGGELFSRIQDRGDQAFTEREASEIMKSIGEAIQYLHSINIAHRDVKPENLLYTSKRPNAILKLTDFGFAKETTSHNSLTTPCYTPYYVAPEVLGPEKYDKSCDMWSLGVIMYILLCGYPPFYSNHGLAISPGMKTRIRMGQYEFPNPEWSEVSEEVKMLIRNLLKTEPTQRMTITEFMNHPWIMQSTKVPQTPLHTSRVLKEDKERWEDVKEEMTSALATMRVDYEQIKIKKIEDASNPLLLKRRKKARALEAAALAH
Sequence of UniProt Q5S007 (whole entry, looked up): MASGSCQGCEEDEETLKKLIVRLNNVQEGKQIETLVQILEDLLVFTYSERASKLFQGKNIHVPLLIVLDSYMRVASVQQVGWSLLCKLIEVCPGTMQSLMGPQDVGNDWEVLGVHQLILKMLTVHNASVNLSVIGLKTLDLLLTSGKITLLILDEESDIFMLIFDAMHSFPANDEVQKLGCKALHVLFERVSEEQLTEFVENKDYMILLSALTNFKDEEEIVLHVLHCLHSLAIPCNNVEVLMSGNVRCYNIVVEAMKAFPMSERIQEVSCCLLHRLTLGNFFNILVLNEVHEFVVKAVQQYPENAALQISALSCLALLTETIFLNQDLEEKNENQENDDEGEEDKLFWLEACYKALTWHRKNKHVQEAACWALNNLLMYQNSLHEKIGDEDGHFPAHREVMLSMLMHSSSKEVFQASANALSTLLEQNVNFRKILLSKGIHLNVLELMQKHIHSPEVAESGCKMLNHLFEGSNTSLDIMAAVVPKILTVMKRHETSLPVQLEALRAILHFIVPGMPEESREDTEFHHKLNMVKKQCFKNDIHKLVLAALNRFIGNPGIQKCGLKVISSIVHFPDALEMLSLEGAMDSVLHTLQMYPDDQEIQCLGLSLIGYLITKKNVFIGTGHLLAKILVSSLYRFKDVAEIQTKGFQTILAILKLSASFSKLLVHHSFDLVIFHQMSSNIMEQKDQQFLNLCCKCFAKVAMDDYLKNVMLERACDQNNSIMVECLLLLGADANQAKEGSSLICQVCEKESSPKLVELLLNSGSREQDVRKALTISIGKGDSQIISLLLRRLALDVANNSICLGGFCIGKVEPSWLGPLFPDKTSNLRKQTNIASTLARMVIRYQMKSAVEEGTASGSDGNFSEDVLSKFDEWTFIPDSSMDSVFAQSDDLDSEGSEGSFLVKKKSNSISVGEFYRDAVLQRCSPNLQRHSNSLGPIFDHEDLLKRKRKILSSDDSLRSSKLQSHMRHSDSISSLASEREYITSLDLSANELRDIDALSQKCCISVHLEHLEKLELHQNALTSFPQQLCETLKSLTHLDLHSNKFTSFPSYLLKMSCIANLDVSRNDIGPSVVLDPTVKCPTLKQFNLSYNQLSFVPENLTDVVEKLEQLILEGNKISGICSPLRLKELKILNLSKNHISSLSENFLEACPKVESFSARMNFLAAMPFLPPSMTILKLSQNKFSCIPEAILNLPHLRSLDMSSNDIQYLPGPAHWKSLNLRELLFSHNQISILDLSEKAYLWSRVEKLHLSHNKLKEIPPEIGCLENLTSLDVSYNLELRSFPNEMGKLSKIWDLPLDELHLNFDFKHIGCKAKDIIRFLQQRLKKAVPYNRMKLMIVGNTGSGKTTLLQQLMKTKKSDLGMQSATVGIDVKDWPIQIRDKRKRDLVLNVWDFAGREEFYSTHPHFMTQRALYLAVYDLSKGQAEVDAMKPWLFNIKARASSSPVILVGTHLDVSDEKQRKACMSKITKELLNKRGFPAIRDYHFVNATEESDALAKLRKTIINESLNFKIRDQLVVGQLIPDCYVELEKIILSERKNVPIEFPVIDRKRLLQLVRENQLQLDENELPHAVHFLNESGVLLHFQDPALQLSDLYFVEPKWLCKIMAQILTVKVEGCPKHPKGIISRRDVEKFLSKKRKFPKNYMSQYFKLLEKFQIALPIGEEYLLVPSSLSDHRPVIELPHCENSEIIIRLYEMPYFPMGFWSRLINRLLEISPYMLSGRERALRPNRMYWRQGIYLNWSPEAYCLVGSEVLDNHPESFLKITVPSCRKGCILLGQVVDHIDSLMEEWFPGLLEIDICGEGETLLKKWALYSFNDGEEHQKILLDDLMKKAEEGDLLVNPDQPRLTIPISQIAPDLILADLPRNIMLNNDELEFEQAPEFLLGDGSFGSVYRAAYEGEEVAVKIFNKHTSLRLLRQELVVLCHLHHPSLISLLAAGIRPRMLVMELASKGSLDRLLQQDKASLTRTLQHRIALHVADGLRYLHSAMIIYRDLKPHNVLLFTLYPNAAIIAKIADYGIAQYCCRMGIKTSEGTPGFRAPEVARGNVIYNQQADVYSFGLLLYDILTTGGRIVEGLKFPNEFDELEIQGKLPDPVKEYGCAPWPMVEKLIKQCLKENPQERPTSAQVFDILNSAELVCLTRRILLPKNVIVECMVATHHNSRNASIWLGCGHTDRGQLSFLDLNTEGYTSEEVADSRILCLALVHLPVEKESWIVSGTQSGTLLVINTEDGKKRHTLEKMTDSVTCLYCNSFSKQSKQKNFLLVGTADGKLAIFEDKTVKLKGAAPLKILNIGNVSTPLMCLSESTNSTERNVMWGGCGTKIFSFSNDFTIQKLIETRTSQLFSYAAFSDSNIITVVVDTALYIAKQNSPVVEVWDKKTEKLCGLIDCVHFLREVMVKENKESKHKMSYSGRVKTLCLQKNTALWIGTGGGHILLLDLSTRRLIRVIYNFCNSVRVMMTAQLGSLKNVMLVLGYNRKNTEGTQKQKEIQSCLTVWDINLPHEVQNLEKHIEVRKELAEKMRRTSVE
Sequence of UniProt Q96Q40 (whole entry, looked up): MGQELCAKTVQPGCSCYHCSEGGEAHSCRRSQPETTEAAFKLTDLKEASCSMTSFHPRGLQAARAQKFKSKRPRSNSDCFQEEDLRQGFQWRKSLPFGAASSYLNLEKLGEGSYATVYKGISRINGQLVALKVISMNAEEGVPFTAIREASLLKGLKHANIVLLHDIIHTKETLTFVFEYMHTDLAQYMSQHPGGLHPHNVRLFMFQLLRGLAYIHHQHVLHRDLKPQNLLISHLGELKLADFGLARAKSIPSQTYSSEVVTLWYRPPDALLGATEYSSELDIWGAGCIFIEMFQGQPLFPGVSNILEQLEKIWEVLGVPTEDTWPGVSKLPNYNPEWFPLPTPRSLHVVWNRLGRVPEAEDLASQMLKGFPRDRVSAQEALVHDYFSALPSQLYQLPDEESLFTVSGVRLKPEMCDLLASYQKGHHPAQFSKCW
Sequence of UniProt Q8NEV4 (whole entry, looked up): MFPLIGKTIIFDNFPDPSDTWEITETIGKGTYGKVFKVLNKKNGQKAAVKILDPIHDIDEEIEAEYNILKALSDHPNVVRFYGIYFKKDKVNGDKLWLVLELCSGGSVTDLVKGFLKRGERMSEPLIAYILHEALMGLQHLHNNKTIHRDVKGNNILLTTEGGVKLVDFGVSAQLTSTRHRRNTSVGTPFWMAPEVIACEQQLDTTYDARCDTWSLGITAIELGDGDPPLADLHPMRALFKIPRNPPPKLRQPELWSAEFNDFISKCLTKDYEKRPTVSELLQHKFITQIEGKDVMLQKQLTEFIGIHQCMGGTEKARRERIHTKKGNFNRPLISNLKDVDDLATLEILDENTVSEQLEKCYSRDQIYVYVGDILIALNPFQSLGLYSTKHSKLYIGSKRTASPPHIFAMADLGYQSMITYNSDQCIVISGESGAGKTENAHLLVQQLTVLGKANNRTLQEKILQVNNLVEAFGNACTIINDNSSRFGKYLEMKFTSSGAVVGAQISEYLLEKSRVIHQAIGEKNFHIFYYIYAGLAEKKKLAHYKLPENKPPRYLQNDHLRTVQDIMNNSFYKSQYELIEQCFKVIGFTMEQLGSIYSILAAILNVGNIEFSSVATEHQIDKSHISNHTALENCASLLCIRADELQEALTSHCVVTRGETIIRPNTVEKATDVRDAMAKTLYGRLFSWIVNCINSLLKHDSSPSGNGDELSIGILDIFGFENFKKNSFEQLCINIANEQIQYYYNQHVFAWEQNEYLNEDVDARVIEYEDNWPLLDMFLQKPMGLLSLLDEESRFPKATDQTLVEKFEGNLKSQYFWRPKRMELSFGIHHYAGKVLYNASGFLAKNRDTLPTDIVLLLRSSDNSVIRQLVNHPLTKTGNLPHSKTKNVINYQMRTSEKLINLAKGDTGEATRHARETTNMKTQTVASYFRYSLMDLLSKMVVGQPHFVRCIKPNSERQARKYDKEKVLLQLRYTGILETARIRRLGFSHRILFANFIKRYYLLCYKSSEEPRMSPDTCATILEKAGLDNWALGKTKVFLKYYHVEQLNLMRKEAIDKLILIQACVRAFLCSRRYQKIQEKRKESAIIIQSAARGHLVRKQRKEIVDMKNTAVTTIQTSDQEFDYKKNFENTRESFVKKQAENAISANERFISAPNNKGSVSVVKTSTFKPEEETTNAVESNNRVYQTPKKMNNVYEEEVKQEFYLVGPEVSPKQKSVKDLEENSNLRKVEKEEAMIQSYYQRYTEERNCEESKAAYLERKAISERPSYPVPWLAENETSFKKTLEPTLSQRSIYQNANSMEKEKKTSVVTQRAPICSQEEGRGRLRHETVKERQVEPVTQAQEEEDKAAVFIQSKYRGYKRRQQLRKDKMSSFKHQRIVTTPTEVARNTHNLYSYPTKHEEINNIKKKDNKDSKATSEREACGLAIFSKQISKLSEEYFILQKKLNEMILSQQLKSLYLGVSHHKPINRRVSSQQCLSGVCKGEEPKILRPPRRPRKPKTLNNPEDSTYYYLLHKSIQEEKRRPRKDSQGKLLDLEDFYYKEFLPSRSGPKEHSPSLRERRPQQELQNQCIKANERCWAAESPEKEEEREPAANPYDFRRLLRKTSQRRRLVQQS

Block 1
SMILES: CN1CCN(c2cnc3c(C4CCN(C(=O)c5ccc(OC(F)(F)F)cc5N)CC4)ncnc3c2)CC1
Method: competition with immobilised ligand
Tested at: 1 µM
target	observed	remaining binding [%]
NEK4 (Homo sapiens, UniProt P51957)	cell-free assay	100
ALK (Homo sapiens, UniProt Q9UM73, C1156Y)	cell-free assay	100
Ribosomal protein S6 kinase alpha-3, C-terminal kinase domain (RPS6KA3, Homo sapiens, UniProt P51812)	cell-free assay	80
FLT3 (Homo sapiens, UniProt P36888, ITD)	cell-free assay	88
Myosin-IIIa (MYO3A, Homo sapiens, UniProt Q8NEV4)	binding	100
CSNK1E (Homo sapiens, UniProt P49674)	cell-free assay	100
CAMK2B (Homo sapiens, UniProt Q13554)	cell-free assay	100
MAPKAPK5 (Homo sapiens, UniProt Q8IW41)	cell-free assay	100
EGFR (Homo sapiens, UniProt P00533, A750P/del747-749)	cell-free assay	83
MAPKAPK2 (Homo sapiens, UniProt P49137)	cell-free assay	100
CDK15 (Homo sapiens, UniProt Q96Q40)	cell-free assay	100
Myosin-IIIb (MYO3B, Homo sapiens, UniProt Q8WXR4)	binding	73
PRKX (Homo sapiens, UniProt P51817)	cell-free assay	100
STK39 (Homo sapiens, UniProt Q9UEW8)	cell-free assay	81
ACVR2A (Homo sapiens, UniProt P27037)	cell-free assay	100
WEE2 (Homo sapiens, UniProt P0C1S8)	cell-free assay	100
PAK1 (Homo sapiens, UniProt Q13153)	cell-free assay	93
FER (Homo sapiens, UniProt P16591)	cell-free assay	100
CDKL2 (Homo sapiens, UniProt Q92772)	binding	100
BLK (Homo sapiens, UniProt P51451)	cell-free assay	91

Block 2
Target: PABPC1L2, full length, GST fusion (mouse, UniProt A0ABA7IW68)
Method: RNAcompete
Molecule type: RNA
Medium: in vitro
Tested at: 20 nM
Notes: 7-mer, probes averaged, single round
Baseline: mean of 7-mers
Reading: higher = stronger binding
Construct (chain): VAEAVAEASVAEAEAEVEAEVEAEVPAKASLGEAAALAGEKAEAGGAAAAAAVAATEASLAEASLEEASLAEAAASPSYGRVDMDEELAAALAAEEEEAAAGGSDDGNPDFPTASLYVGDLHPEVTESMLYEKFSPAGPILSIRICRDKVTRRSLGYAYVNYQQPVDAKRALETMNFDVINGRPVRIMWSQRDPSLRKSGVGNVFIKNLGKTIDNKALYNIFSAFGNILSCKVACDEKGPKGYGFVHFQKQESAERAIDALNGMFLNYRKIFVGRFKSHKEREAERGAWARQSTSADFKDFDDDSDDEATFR
Sequence	7-mer Z-score
GAAACGG	0.34
GAGAUUC	-0.24
AUAACGG	0.189
CGGGGAC	0.0642
GCUCCAA	-0.133
GUCUAGG	-0.213
CCGAUGU	-0.293
CCCAUCA	-0.269

Block 3
SMILES: COc1cc2c(N3CCN(C(=O)Nc4ccc(OC(C)C)cc4)CC3)ncnc2cc1OCCCN1CCCCC1
Observed: enzyme activity
Action: inhibitor
Tested at: 0.5 µM
Baseline: control
target	remaining activity [%]
MAPK12 (Homo sapiens, UniProt P53778)	96.4
LRRK2 (Homo sapiens, UniProt Q5S007)	123
PRKCI (Homo sapiens, UniProt P41743)	96.2
MAPK13 (Homo sapiens, UniProt O15264)	99.3
Cyclin-dependent kinase 9, with cyclin T1 (CDK9, Homo sapiens, UniProt P50750)	100
IRAK4 (Homo sapiens, UniProt Q9NWZ3)	96
MAP4K2 (Homo sapiens, UniProt Q12851)	104

Block 4
Target: TAR DNA-binding protein 43, full length, His tag (TARDBP, Homo sapiens, UniProt Q13148, residues 1-414)
Method: RNA Bind-n-Seq
Molecule type: RNA
Medium: in vitro
Tested at: 20 nM
Notes: 6-mer, flanks averaged, single round
With: 150 mM LiCl
Baseline: input library
Reading: higher = stronger binding
Sequence	6-mer enrichment (R)
UGGGCG	1.18
UGGUCU	0.949
AACCUU	0.895
GAGCCG	0.967
GACAUU	0.903
AUCGAA	0.809
ACAUGA	0.847
GCGUAA	0.936

Excerpt of the above (block 1):
target	observed	remaining binding [%]
FLT3 (Homo sapiens, UniProt P36888, ITD)	cell-free assay	88
Myosin-IIIa (MYO3A, Homo sapiens, UniProt Q8NEV4)	binding	100
CSNK1E (Homo sapiens, UniProt P49674)	cell-free assay	100
CAMK2B (Homo sapiens, UniProt Q13554)	cell-free assay	100
MAPKAPK5 (Homo sapiens, UniProt Q8IW41)	cell-free assay	100
EGFR (Homo sapiens, UniProt P00533, A750P/del747-749)	cell-free assay	83
